Published values gathered from unrelated publications.
Compare with care: the assays were run in different laboratories. Numbers after ± are the reported error.
Target: Estrogen receptor beta (ESR2, Homo sapiens, UniProt Q92731)
Sequence of UniProt Q92731 (whole entry, looked up): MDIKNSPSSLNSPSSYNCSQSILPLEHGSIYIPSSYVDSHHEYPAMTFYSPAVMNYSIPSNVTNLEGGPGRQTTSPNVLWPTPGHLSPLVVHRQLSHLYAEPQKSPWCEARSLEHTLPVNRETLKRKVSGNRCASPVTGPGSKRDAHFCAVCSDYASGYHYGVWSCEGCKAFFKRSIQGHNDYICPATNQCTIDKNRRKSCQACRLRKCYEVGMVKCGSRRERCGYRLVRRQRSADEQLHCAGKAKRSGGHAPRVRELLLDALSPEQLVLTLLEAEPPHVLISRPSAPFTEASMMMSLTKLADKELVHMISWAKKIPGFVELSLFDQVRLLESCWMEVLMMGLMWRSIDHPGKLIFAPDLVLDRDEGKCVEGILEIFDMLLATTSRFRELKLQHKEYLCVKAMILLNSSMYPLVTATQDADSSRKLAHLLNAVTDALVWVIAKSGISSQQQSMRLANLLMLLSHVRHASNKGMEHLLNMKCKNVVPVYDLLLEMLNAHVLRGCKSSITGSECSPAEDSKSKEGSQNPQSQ

SMILES	test	conditions	how to read	quantity	result
CCc1c(-c2ccc(O)cc2)nn(-c2ccc(O)cc2)c1-c1ccc(OCCN2CCCCC2)cc1	competitor, radioligand binding	concentration not given	baseline: estradiol	relative binding affinity	0.49 ± 0.27
N#CC(=Cc1ccc(O)cc1)c1ccc(Cl)cc1Cl	coactivator recruitment, agonist, yeast two-hybrid	with: SRC1	baseline: ERα EC50 over ERβ EC50	selectivity ratio	0.5
Oc1ccc(-c2cc(-c3ccc(OCCN4CCCCC4)cc3)n(-c3ccc(O)cc3)n2)cc1	competitive radioligand binding	concentration not given	baseline: estradiol, higher = stronger binding	relative binding affinity	0.015 ± 0.001
Oc1ccc(-c2cc(-c3ccc(OCCN4CCCCC4)cc3)n(-c3ccc(O)cc3)n2)cc1	competitor, radioligand binding	concentration not given	baseline: estradiol	relative binding affinity	0.021 ± 0.007
N#CC(=CC(=O)c1ccccc1)c1ccc(O)cc1	coactivator recruitment, agonist, yeast two-hybrid	with: SRC1	baseline: ERα EC50 over ERβ EC50	selectivity ratio	2.27
Oc1ccc(-c2cc(-c3ccc(OCCCN4CCCCC4)cc3)n(-c3ccc(O)cc3)n2)cc1	competitive radioligand binding	concentration not given	baseline: estradiol, higher = stronger binding	relative binding affinity	0.011 ± 0.001
CC/C(=C(\c1ccc(O)cc1)c1ccc(OCCN(C)CCOCCOCCOCCOCCOCCOCCOCCN(C)CCOc2ccc(/C(=C(\CC)c3ccccc3)c3ccc(O)cc3)cc2)cc1)c1ccccc1	radioligand competition binding	concentration not given, Z-E/E isomer form, with: [3H]estradiol tracer	baseline: estradiol	relative binding affinity	9.48%
O=C(O)COc1ccc(C(=C2C3CCCC2CCC3)c2ccc(O)cc2)cc1	binding, radioligand displacement	with: [3H]estradiol	baseline: ERβ over ERα RBA, higher = ERβ selective	selectivity ratio	0.86

For quick reference, copied from above:
SMILES	test	conditions	how to read	quantity	result
O=C(O)COc1ccc(C(=C2C3CCCC2CCC3)c2ccc(O)cc2)cc1	binding, radioligand displacement	with: [3H]estradiol	baseline: ERβ over ERα RBA, higher = ERβ selective	selectivity ratio	0.86
